Measurements collected from several papers.
Compare with care: the assays were run in different laboratories.
Target: Cholinesterase (BCHE, Homo sapiens, UniProt P06276)
UniProt P06276, sequence (whole entry, looked up): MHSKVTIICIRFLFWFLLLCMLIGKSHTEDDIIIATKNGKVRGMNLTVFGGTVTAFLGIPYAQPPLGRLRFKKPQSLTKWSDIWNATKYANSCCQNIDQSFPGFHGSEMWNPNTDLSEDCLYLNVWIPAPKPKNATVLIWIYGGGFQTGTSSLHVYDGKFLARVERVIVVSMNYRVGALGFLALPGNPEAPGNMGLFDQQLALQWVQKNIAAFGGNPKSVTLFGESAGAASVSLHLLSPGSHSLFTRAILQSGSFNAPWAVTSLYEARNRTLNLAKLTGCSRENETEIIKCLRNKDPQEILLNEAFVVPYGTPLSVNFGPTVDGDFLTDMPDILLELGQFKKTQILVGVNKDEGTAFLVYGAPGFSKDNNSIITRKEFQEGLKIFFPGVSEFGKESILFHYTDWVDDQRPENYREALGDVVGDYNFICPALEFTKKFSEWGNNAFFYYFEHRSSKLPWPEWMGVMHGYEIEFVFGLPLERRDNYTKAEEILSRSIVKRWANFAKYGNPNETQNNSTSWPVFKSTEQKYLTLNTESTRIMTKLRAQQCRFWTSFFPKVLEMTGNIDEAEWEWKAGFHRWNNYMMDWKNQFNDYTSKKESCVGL
Read-out: enzyme activity
Action: inhibitor

Structure (SMILES) | method | pH | notes | IC50 [µM]
O=C(O)/C=C/c1ccc(O)cc1 | Ellman |  |  | 487
CSc1ccc(C2=Nn3c(nnc3-c3ccc(-n4nc(-c5ccccc5O)nc4-c4ccccc4O)cc3)SC2)cc1 | Ellman |  |  | 0.89
O=C(NCc1ccc[n+](Cc2ccc(C(F)(F)F)cc2)c1)c1ccc(CN2C(=O)c3ccccc3C2=O)cc1 | Ellman |  |  | 0.18
CN1c2ccc(OC(=O)Nc3ccccc3)cc2[C@@]2(C)CCNC12 (single isomer, unassigned; (+)) | Ellman | pH 8 | with preincubation | > 10
COc1cc2c(c3oc(-c4ccccc4)cc(=O)c13)C=CC(C)(C)O2 | Ellman |  |  | 8.27
COc1cc2c(cc1OC)C(=O)/C(=C\c1ccc(-n3cccn3)cc1)C2 | Ellman |  |  | 398
Cc1ccc(C[n+]2cccc(CNC(=O)c3ccc(CN4C(=O)c5ccccc5C4=O)cc3)c2)cc1 | Ellman |  |  | 2.57
CO/C(=C\C(=O)c1ccc2occc2c1OC)c1ccccc1 | Ellman |  |  | 108
O=C(NCc1ccc[n+](Cc2ccc(Cl)cc2)c1)c1ccc(CN2C(=O)c3ccccc3C2=O)cc1 | Ellman |  |  | 1.28
C[C@]12CCNC1Nc1ccc(OC(=O)Nc3ccccc3)cc12 (single isomer, unassigned; (+)) | Ellman | pH 8 | with preincubation | > 10
CC12CC(c3ccoc3)OC(=O)C1CCC1(C)C2C2OC(=O)C1(O)C1OC21 (stereo not drawn) | Ellman |  |  | 1090
Oc1ccc(C2=Nn3c(nnc3-c3ccc(-n4nc(-c5ccccc5O)nc4-c4ccccc4O)cc3)SC2)cc1 | Ellman |  |  | 0.17
CC1(C)C=Cc2c(cc(O)c3c(=O)cc(-c4ccccc4)oc23)O1 |  |  |  | 7.6
COc1cc2c(cc1OC)C(=O)/C(=C\c1ccc(N3CCCC3)cc1)C2 | Ellman |  |  | 501
COc1ccc2c(=O)c(OC)c(-c3ccc(OC)c(OC)c3)oc2c1 | Ellman |  |  | > 200
COc1cc2c(cc1OC)C(=O)C(=Cc1ccc(N3CCN(C)CC3)cc1)C2 | Ellman |  |  | 126
Oc1ccccc1C1=Nn2c(nnc2-c2ccc(-n3nc(-c4ccccc4O)nc3-c3ccccc3O)cc2)SC1 | Ellman |  |  | 0.47
COc1cc2c(cc1OC)C(=O)/C(=C\c1ccc(Cl)cc1)C2 | Ellman |  |  | > 1000
N#Cc1ccc(C2=Nn3c(nnc3-c3ccc(-n4nc(-c5ccccc5O)nc4-c4ccccc4O)cc3)SC2)cc1 | Ellman |  |  | 0.28
O=c1c(O)c(-c2cc(O)ccc2O)oc2cc(O)cc(O)c12 | Ellman |  |  | 304
Nn1c(-c2ccc(-n3nc(-c4ccccc4O)nc3-c3ccccc3O)cc2)n[nH]c1=S | Ellman |  |  | 0.18
CC1(C)C=Cc2c(ccc3c(=O)cc(-c4ccccc4)oc23)O1 | Ellman |  |  | 4.04
COc1ccc(-c2coc3cc(OCCN4CCCCC4)ccc3c2=O)cc1 | Ellman |  |  | 5.75
COc1cc2c(cc1OC)C(=O)/C(=C\c1ccc(-n3ccnc3)cc1)C2 | Ellman |  |  | 501
COc1cc(/C=C/C(=O)CC(=O)/C=C/c2ccc(OC(=O)CCc3c[nH]c4ccccc34)c(OC)c2)ccc1OC(=O)CCc1c[nH]c2ccccc12 |  |  |  | 60.7
COc1cc2c(cc1OC)C(=O)/C(=C\c1ccc(N3CCOCC3)cc1)C2 | Ellman |  |  | 631
CCN(CCCCOc1ccc(CCC(=O)N2CCC(Cc3ccccc3)CC2)cc1OC)Cc1ccccc1 | Ellman |  |  | 0.066
COc1c2c(cc3oc(-c4ccccc4)cc(=O)c13)OC(C)(C)C=C2 | Ellman |  |  | 4.95
COc1cc(/C=N\N=C(\C)c2ccc(OCc3ccc(Br)cc3)cc2)ccc1O |  |  |  | 29.2
CCOc1ccc2nc3cc(N)ccc3c(N)c2c1 | Ellman |  |  | 2.4

Excerpt of the above:
Structure (SMILES) | method | pH | notes | IC50 [µM]
COc1cc2c(c3oc(-c4ccccc4)cc(=O)c13)C=CC(C)(C)O2 | Ellman |  |  | 8.27
COc1cc2c(cc1OC)C(=O)/C(=C\c1ccc(-n3cccn3)cc1)C2 | Ellman |  |  | 398
Cc1ccc(C[n+]2cccc(CNC(=O)c3ccc(CN4C(=O)c5ccccc5C4=O)cc3)c2)cc1 | Ellman |  |  | 2.57
